Assay results gathered from unrelated publications.
Organism: Staphylococcus aureus

CCCCCCC#Cc1cncc(-c2nnc(SCc3ccc(Cl)cc3)n2CCCN)c1  MIC (broth microdilution; Mu50 MRSA VISA; 18 to 24 h, 37 °C): 4 µg/mL
N=C(N)NCCC[C@H](NC(=O)[C@H](Cc1c[nH]c2ccccc12)NC(=O)[C@H](CCCNC(=N)N)NC(=O)[C@@H](N)Cc1c[nH]c2ccccc12)C(=O)N[C@@H](Cc1ccccc1)C(=O)N[C@@H](CCC(N)=O)C(=O)N[C@@H](Cc1ccccc1)C(=O)N[C@@H](CCC(N)=O)C(=O)N[C@@H](Cc1ccccc1)C(=O)N[C@@H](CCCCN)C(N)=O  MIC (broth microdilution, optical density; ATCC 25923): 140 µM
CC[C@H](C)[C@H](NC(=O)CN)C(=O)N[C@@H](CC(C)C)C(=O)N[C@@H](CC(=O)O)C(=O)N[C@@H](C)C(=O)N[C@H](C(=O)N[C@@H](CCCCN)C(=O)N[C@@H](C)C(=O)N[C@H](C(=O)N[C@@H](C)C(=O)N[C@@H](CCCCN)C(=O)N[C@@H](C)C(=O)N[C@H](C(=O)N[C@@H](CCCCN)C(=O)N[C@@H](C)C(=O)N[C@@H](CCCCN)C(=O)N[C@@H](C)C(=O)NCC(N)=O)[C@@H](C)CC)[C@@H](C)CC)[C@@H](C)CC  MIC (ATCC 29213, Mueller-Hinton broth; 12 h, 37 °C): 4 µg/mL
CC[C@H](C)[C@H](NC(=O)[C@H](CCCCN)NC(=O)[C@H](CCCCN)NC(=O)[C@H](Cc1ccccc1)NC(=O)[C@@H](NC(=O)[C@@H](NC(=O)[C@H](CCCNC(=N)N)NC(=O)[C@H](Cc1ccccc1)NC(=O)[C@@H](NC(=O)[C@H](CCCCN)NC(=O)[C@H](CCCCN)NC(=O)[C@@H](N)CCSC)[C@@H](C)CC)C(C)C)[C@@H](C)CC)C(=O)N[C@@H](CC(C)C)C(=O)N[C@@H](CCCCN)C(=O)N[C@@H](CCCNC(=N)N)C(=O)N[C@@H](CC(C)C)C(=O)N[C@H](C(=O)N[C@H](C(=O)O)C(C)C)[C@@H](C)CC  MIC (broth microdilution; GU-1 MRSA; with: 2 mM CaCl2): 8 µg/mL
CC[C@H](C)[C@H](NC(=O)[C@H](CCCCN)NC(=O)[C@H](CCCCN)NC(=O)CNC(=O)[C@H](CCCCN)NC(=O)[C@H](CC(C)C)NC(=O)[C@H](CCCCN)NC(=O)[C@H](CCCNC(=N)N)NC(=O)[C@@H](NC(=O)[C@H](CC(C)C)NC(=O)[C@H](CCCNC(=N)N)NC(=O)[C@@H](N)CCCNC(=N)N)[C@@H](C)CC)C(=O)N[C@@H](Cc1ccc(O)cc1)C(=O)N[C@@H](CC(C)C)C(=O)N[C@@H](Cc1ccc(O)cc1)C(=O)N[C@@H](Cc1ccccc1)C(=O)N[C@@H](CCCCN)C(=O)N[C@@H](CC(C)C)C(=O)N[C@@H](CCC(N)=O)C(=O)N[C@@H](CC(C)C)C(=O)N[C@@H](CC(C)C)C(=O)N[C@@H](CCCCN)C(=O)N[C@@H](CCCCN)C(N)=O  MIC (KCTC 1621, Mueller-Hinton broth; with: 150 mM NaCl): 16 µM
O=c1ncn2nc(Sc3ccc(F)cc3F)ccc2c1-c1c(Cl)cccc1Cl  MIC (NCTC 8325): > 30 µM
c1ccc(CCOC2CCCc3c2[nH]c2ccccc32)cc1 (stereo not drawn)  MIC (broth microdilution): > 16 µg/mL
CC[C@H](C)[C@H](NC(=O)[C@H](Cc1ccc(O)cc1)NC(=O)[C@@H](NC(=O)[C@H](Cc1ccc(O)cc1)NC(=O)[C@@H]1CCCN1C(=O)[C@@H](NC(=O)[C@H](C)N)[C@@H](C)CC)[C@@H](C)CC)C(=O)N[C@@H](Cc1c[nH]c2ccccc12)C(=O)N[C@@H](CCCNC(=N)N)C(=O)N[C@@H](CC(C)C)C(=O)N[C@@H](CC(C)C)C(=O)N[C@@H](CCCNC(=N)N)C(=O)N[C@@H](CCCCN)C(=O)NCC(=O)O  MIC (broth microdilution; ATCC 6051; 18 h, 37 °C): 1.88 µM
CN[C@H](CC(C)C)C(=O)N[C@H]1C(=O)N[C@@H](CC(N)=O)C(=O)N[C@H]2C(=O)N[C@H]3C(=O)N[C@H](C(=O)N[C@H](C(=O)O)c4cc(O)cc(O)c4-c4cc3ccc4O)[C@H](O)c3ccc(c(Cl)c3)Oc3cc2cc(c3O[C@@H]2O[C@H](CO)[C@@H](O)[C@H](O)[C@H]2O[C@H]2C[C@](C)(N)[C@H](O)[C@H](C)O2)Oc2ccc(cc2Cl)[C@H]1O  MIC (CRB, PBP4 overexpressor): 0.5 µg/mL
CC[C@H](C)[C@H](N)C(=O)N[C@@H](CC(C)C)C(=O)NCC(=O)N[C@H](CCCNC(=N)N)C(=O)N[C@H](C(=O)N[C@@H](Cc1c[nH]c2ccccc12)C(=O)N[C@@H](CCCCN)C(=O)NCC(=O)N[C@H](C(=O)N[C@@H](CCCCN)C(=O)N[C@@H](CC(=O)O)C(=O)N[C@H](C(=O)N[C@@H](CC(C)C)C(N)=O)[C@@H](C)CC)[C@@H](C)CC)[C@@H](C)CC  MIC (broth microdilution; ATCC 25923; with: NH4Cl 6 µM): 25 µM
CC[C@H](C)CCCCC(=O)N[C@@H](CCN)C(=O)N[C@H](C(=O)N[C@@H](CCN)C(=O)N[C@H]1CCNC(=O)[C@H]([C@@H](C)O)NC(=O)[C@H](CCN)NC(=O)[C@H](CCN)NC(=O)[C@H](CC(C)C)NC(=O)[C@@H](Cc2ccccc2)NC(=O)[C@H](CCN)NC1=O)[C@@H](C)O  MIC (broth microdilution; ATCC 6538; 24 h, 37 °C): 32 µg/mL
CC(C)C[C@@H](NC(=O)CNC(=O)[C@@H](CCCCN)NC(=O)[C@@H](CC(C)C)NC(=O)[C@@H](CCCCN)NC(=O)[C@@H](CCCNC(=N)N)NC(=O)[C@@H](CC(C)C)NC(=O)[C@@H](CC(C)C)NC(=O)[C@@H](CCCNC(=N)N)NC(=O)[C@H](N)CCCNC(=N)N)C(=O)N[C@H](CCCCN)C(=O)N[C@H](CCCCN)C(=O)N[C@H](Cc1ccc(O)cc1)C(=O)N[C@H](CC(C)C)C(=O)N[C@H](Cc1ccc(O)cc1)C(=O)N[C@H](Cc1ccccc1)C(=O)N[C@H](CCCCN)C(=O)N[C@H](CC(C)C)C(=O)N[C@H](CCC(N)=O)C(=O)N[C@H](CC(C)C)C(=O)N[C@H](CC(C)C)C(=O)N[C@H](CCCCN)C(=O)N[C@H](CCCCN)C(N)=O  MIC (KCTC 1621, Mueller-Hinton broth; with: 1 mM MgCl2): 8 µM
